{"data": "Measured values from different studies", "note": "Numbered parts are unrelated; each lists some results of a single study."}
{"data": "Series 1", "target": "Interferon regulatory factor 3, full length, phosphomimetic (IRF3, Homo sapiens, UniProt Q14653, residues 1-427, S386D/S396D/S398D/S402D/T404D/S405D)", "method": "protein-binding microarray", "molecule type": "double-stranded DNA, one strand shown", "sample": "in vitro", "tested at": "2540 nM top", "setting": "60-bp whole probe", "together with": "salmon DNA 0.4 mg/ml", "reference": "random background probes", "direction": "higher = stronger binding", "all sequences stand within": "GCCTAGCAC … GTCTTGATTCGCTTGACGCTGCTG", "Target sequence (chain)": "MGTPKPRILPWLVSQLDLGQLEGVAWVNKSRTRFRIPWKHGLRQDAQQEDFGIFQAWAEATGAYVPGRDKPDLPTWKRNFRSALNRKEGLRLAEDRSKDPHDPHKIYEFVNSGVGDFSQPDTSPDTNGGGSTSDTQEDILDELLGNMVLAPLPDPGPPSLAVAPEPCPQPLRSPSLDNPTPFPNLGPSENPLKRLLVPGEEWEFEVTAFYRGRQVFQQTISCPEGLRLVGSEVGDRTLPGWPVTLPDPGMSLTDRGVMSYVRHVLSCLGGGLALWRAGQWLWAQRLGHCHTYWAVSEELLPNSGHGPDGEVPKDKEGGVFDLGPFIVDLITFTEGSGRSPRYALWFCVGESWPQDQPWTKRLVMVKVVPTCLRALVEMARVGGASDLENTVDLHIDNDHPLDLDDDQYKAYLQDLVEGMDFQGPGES"}
{"Oligonucleotide": "TCATTTTCGTTTTTATTATTGTGCTAG", "fitted relative affinity": "6.73 z-score"}
{"Oligonucleotide": "TTAGGTTTCGACTTTCGTTTAGTGCTA", "fitted relative affinity": "3.77 z-score"}
{"Oligonucleotide": "GACGATTTCAGACTGAAGACGTGCTAG", "fitted relative affinity": "1.03 z-score"}
{"Oligonucleotide": "GACGGTTTCAGGTTTCGGGACGTGCTA", "fitted relative affinity": "4.6 z-score"}
{"Oligonucleotide": "TTGAGGTTTTCTCTGGTTCTGTGCTAG", "fitted relative affinity": "-0.318 z-score"}
{"Oligonucleotide": "GACGTTCTCAGTCTCGAGACGTGCTAG", "fitted relative affinity": "1.4 z-score"}
{"Oligonucleotide": "TTAGGTCTCGGACTGGGTTTGTGCTAG", "fitted relative affinity": "-0.477 z-score"}
{"Oligonucleotide": "TTAGGTATCGGGTTTCGGGTAGTGCTA", "fitted relative affinity": "2.68 z-score"}
{"Oligonucleotide": "GACGGACTGGGTACTGGGGACGTGCTA", "fitted relative affinity": "-0.793 z-score"}
{"Oligonucleotide": "TTAGGTATCGACTATCTGTTAGTGCTA", "fitted relative affinity": "0.283 z-score"}
{"Oligonucleotide": "TTGGAACTGAGTATCGATTAGTGCTAG", "fitted relative affinity": "-0.0534 z-score"}
{"Oligonucleotide": "GCAGGTCTGGACCCAGACTCGTGCTAG", "fitted relative affinity": "0.0501 z-score"}
{"Oligonucleotide": "TCATAAACCATTTTGGTACTGTGCTAG", "fitted relative affinity": "0.828 z-score"}
{"Oligonucleotide": "TTAGGAATGCTTTTCCTTTAGTGCTAG", "fitted relative affinity": "1.25 z-score"}
{"Oligonucleotide": "TTAGATTCCAGTTACGATTAGTGCTAG", "fitted relative affinity": "2.69 z-score"}
{"Oligonucleotide": "TATCATTTAATTATATGGCTGTGCTAG", "fitted relative affinity": "1.09 z-score"}
{"Oligonucleotide": "TCATTTCTGAATGCTCCCACTGTGCTA", "fitted relative affinity": "2.16 z-score"}
{"Oligonucleotide": "GACGGACTGGGCACTGGGGACGTGCTA", "fitted relative affinity": "-1.18 z-score"}
{"Oligonucleotide": "TTAGGTTTCGGTATCGGCTAGTGCTAG", "fitted relative affinity": "8.25 z-score"}
{"data": "Series 2", "target": "RNA binding protein fox-1 homolog 2, RRM domain, GST-SBP tag (RBFOX2, Homo sapiens, UniProt O43251-10, residues 100-194)", "method": "RNA Bind-n-Seq", "molecule type": "RNA", "sample": "in vitro", "tested at": "365 nM", "setting": "natural RNA segment, single round, ends assumed", "reference": "no-protein control", "direction": "higher = stronger binding", "all sequences stand within": "GGGAGUUCUACAGUCCGACGAUC … UGGAAUUCUCGGGUGCCAA", "Residues (chain)": "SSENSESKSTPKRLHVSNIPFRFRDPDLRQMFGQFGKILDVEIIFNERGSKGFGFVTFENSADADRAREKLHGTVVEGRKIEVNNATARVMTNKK"}
{"Oligonucleotide": "CACUCAGAGGUCUGAGAGCCUACCAUGUGGAACAGUGUAAGCAGAAAGGCCAUCUUCCCACUGUCCUGCCAGCAGCUGUUCUGGGUAGCAGCAAUUGCAGAGUGACCAGU", "RBNS enrichment (R)": 0.349}
{"Oligonucleotide": "GAUCCACUGCAGAAAGUUGUGUGCUUCAACCACGAUAAUACCCUGCUUGCCACUGGAGGAACAGAUGGCUACGUCCGUGUCUGGAAGGUGCCCAGCCUGGAGAAGGUUCU", "RBNS enrichment (R)": 0.41}
{"Oligonucleotide": "CCCUCAGCUACUCCUUGUUUUAAAGUUCAGCUCUUUGAGUAACUUCUUCAAUUUCUUUCAGGACACUUGGGUUGAAUUCAGUAAGUUUCCUCUGAAGCACCCUGAAGGGU", "RBNS enrichment (R)": 0.885}
{"Oligonucleotide": "UGUGUUUAGCAUAGGUGCUGUAGUUGGAGUGGGCCCCACCUCUGCUCCUUUCAGUGUUCUUGCUGUUCAAGUUAUUCCUCUCAGACAUCCUCCAUUGUCCCACGCACUCC", "RBNS enrichment (R)": 1.14}
{"Oligonucleotide": "CCGGUGUGGUGGCUCCCCAUGCAGGACGGGCCAGGCUGGGAGUGCCGCCUUCCUGUGCCAAAUUCAGUGGGGACUCAGUGCCCAGGCCCUGGCCACGAGCUUUGGCCUUG", "RBNS enrichment (R)": 0.314}
{"Oligonucleotide": "AGUGUUGAUGGAAGAAAUCAUUUUUAAUGUGUACUGUAAAACUUGAAAUACUCAGGAGCUGAGUGAGUAUGUUUGUUGCUACUUACAAUCCCAACCUGUUAGUCCCAGUA", "RBNS enrichment (R)": 0.425}
{"Oligonucleotide": "UUUUCUCACUUGCACCCCUGCACCUCGUUAUGACCCCUAUUUUUCUGGGAUUUUCUUGGUCCUCAUUUUCUGACUCUCUCCCACAACCCACUCCAAAAGGUAGUACCUCA", "RBNS enrichment (R)": 1.06}
{"Oligonucleotide": "AAAGUGACUUCAAUAAAUUUAUAUUAAAAUAAACUUAAGAAAUUUACAAACAAGACCUUUUUAAAAUUUAAUUUAAUUUUUUAACUUAUUCACUUUAUAUCCCACUCACU", "RBNS enrichment (R)": 0.56}
{"data": "Series 3", "target": "Histone acetyltransferase KAT6A, winged helix 1, GST fusion (KAT6A, Homo sapiens, UniProt Q92794, residues 1-85)", "method": "protein binding microarray", "molecule type": "double-stranded DNA, one strand shown", "sample": "in vitro", "tested at": "not given", "setting": "8-mer, flanks averaged, mean of 2 arrays, mostly near background", "reference": "not given", "direction": "higher = stronger binding", "Residues (chain)": "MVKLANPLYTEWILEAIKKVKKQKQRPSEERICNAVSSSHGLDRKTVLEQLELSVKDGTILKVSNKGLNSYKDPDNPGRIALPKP"}
{"Oligonucleotide": "CGGGTCTA", "E-score": 0.0957}
{"Oligonucleotide": "CCTATCCG", "E-score": 0.112}
{"Oligonucleotide": "AGAACAGG", "E-score": -0.216}
{"Oligonucleotide": "ACGTTTAC", "E-score": 0.0271}
{"Oligonucleotide": "GCTGGCAA", "E-score": -0.0885}
{"Oligonucleotide": "GCTGCACC", "E-score": 0.0718}
{"Oligonucleotide": "TACAGGTA", "E-score": -0.0772}
{"Oligonucleotide": "GCAGGGAA", "E-score": -0.119}
{"Oligonucleotide": "TCGACGCA", "E-score": 0.127}
{"Oligonucleotide": "ATGAATGA", "E-score": -0.124}
{"Oligonucleotide": "CCTCCAAA", "E-score": -0.0815}
{"Oligonucleotide": "GACATTAC", "E-score": 0.0422}
{"Oligonucleotide": "AGAGAAAC", "E-score": -0.158}
{"Oligonucleotide": "AGAGTGTA", "E-score": -0.185}
{"Oligonucleotide": "ACAATGTG", "E-score": -0.219}
{"Oligonucleotide": "CAGTTGAC", "E-score": -0.0618}
{"Oligonucleotide": "ATACGTGA", "E-score": -0.0775}
{"Oligonucleotide": "CCGGTTAC", "E-score": 0.303}
{"Oligonucleotide": "CAGCCGCG", "E-score": 0.38}
{"Oligonucleotide": "ATTGCTCC", "E-score": -0.0697}
{"Oligonucleotide": "GCAGTCTA", "E-score": -0.0541}
{"Oligonucleotide": "CCAACCAG", "E-score": -0.0923}
{"Oligonucleotide": "ATGTCTGG", "E-score": -0.162}
{"Oligonucleotide": "TGACATAA", "E-score": -0.18}
{"Oligonucleotide": "AACGTTTG", "E-score": 0.0137}
{"data": "Series 4", "target": "TAR DNA-binding protein 43, full length, His tag (TARDBP, Homo sapiens, UniProt Q13148, residues 1-414)", "method": "RNA Bind-n-Seq", "molecule type": "RNA", "sample": "in vitro", "tested at": "20 nM", "setting": "6-mer, flanks averaged, single round", "together with": "150 mM KCl", "reference": "input library", "direction": "higher = stronger binding"}
{"Oligonucleotide": "AAAGCU", "6-mer enrichment (R)": 0.583}
{"Oligonucleotide": "GCGGAG", "6-mer enrichment (R)": 3.73}
{"Oligonucleotide": "CCCACA", "6-mer enrichment (R)": 0.645}
{"Oligonucleotide": "UGAGAU", "6-mer enrichment (R)": 0.819}
{"Oligonucleotide": "UAAAGA", "6-mer enrichment (R)": 0.661}
{"Oligonucleotide": "CCGAUU", "6-mer enrichment (R)": 0.588}
{"Oligonucleotide": "CCCGUU", "6-mer enrichment (R)": 0.606}
{"Oligonucleotide": "AGUAGU", "6-mer enrichment (R)": 0.811}
{"Oligonucleotide": "GACUUA", "6-mer enrichment (R)": 0.629}
{"Oligonucleotide": "CUCGGG", "6-mer enrichment (R)": 1.75}
{"Oligonucleotide": "CGACCC", "6-mer enrichment (R)": 0.655}
{"Oligonucleotide": "CGCCAA", "6-mer enrichment (R)": 0.716}
{"Oligonucleotide": "AGAGCA", "6-mer enrichment (R)": 0.862}
{"Oligonucleotide": "UUAUUA", "6-mer enrichment (R)": 0.638}
{"Oligonucleotide": "GACGUA", "6-mer enrichment (R)": 0.848}
{"Oligonucleotide": "AACCCG", "6-mer enrichment (R)": 0.668}
{"Oligonucleotide": "GGGCUA", "6-mer enrichment (R)": 1.97}
{"Oligonucleotide": "GGACGG", "6-mer enrichment (R)": 4.15}
{"Oligonucleotide": "AGUUUA", "6-mer enrichment (R)": 0.617}
{"Oligonucleotide": "AUGAAC", "6-mer enrichment (R)": 0.692}
{"Oligonucleotide": "GUUGUA", "6-mer enrichment (R)": 0.829}
{"Oligonucleotide": "AUCAUC", "6-mer enrichment (R)": 0.532}
{"Oligonucleotide": "UUCCAG", "6-mer enrichment (R)": 0.669}
{"Oligonucleotide": "GCCCCC", "6-mer enrichment (R)": 0.746}
{"Oligonucleotide": "UGCGCG", "6-mer enrichment (R)": 1.59}
{"note": "Excerpt of the above (series 1):"}
{"Oligonucleotide": "TTAGGTTTCGGTATCGGCTAGTGCTAG", "fitted relative affinity": "8.25 z-score"}
{"Oligonucleotide": "TTAGATTCCAGTTACGATTAGTGCTAG", "fitted relative affinity": "2.69 z-score"}
{"Oligonucleotide": "GACGGACTGGGTACTGGGGACGTGCTA", "fitted relative affinity": "-0.793 z-score"}
{"Oligonucleotide": "TCATTTTCGTTTTTATTATTGTGCTAG", "fitted relative affinity": "6.73 z-score"}
{"Oligonucleotide": "GACGGTTTCAGGTTTCGGGACGTGCTA", "fitted relative affinity": "4.6 z-score"}
{"Oligonucleotide": "TCATTTCTGAATGCTCCCACTGTGCTA", "fitted relative affinity": "2.16 z-score"}
{"Oligonucleotide": "TTAGGAATGCTTTTCCTTTAGTGCTAG", "fitted relative affinity": "1.25 z-score"}
{"Oligonucleotide": "GACGTTCTCAGTCTCGAGACGTGCTAG", "fitted relative affinity": "1.4 z-score"}
{"Oligonucleotide": "TTGAGGTTTTCTCTGGTTCTGTGCTAG", "fitted relative affinity": "-0.318 z-score"}
{"Oligonucleotide": "TATCATTTAATTATATGGCTGTGCTAG", "fitted relative affinity": "1.09 z-score"}
{"Oligonucleotide": "TCATAAACCATTTTGGTACTGTGCTAG", "fitted relative affinity": "0.828 z-score"}
